Published values collected from several papers.
Parts stem from different laboratories: compare values within a part only.

Block 1
Target: Sal-like protein 4, full length isoform A (SALL4, Homo sapiens, UniProt Q9UJQ4, residues 1-1053)
Chain of UniProt Q9UJQ4 (whole entry, looked up): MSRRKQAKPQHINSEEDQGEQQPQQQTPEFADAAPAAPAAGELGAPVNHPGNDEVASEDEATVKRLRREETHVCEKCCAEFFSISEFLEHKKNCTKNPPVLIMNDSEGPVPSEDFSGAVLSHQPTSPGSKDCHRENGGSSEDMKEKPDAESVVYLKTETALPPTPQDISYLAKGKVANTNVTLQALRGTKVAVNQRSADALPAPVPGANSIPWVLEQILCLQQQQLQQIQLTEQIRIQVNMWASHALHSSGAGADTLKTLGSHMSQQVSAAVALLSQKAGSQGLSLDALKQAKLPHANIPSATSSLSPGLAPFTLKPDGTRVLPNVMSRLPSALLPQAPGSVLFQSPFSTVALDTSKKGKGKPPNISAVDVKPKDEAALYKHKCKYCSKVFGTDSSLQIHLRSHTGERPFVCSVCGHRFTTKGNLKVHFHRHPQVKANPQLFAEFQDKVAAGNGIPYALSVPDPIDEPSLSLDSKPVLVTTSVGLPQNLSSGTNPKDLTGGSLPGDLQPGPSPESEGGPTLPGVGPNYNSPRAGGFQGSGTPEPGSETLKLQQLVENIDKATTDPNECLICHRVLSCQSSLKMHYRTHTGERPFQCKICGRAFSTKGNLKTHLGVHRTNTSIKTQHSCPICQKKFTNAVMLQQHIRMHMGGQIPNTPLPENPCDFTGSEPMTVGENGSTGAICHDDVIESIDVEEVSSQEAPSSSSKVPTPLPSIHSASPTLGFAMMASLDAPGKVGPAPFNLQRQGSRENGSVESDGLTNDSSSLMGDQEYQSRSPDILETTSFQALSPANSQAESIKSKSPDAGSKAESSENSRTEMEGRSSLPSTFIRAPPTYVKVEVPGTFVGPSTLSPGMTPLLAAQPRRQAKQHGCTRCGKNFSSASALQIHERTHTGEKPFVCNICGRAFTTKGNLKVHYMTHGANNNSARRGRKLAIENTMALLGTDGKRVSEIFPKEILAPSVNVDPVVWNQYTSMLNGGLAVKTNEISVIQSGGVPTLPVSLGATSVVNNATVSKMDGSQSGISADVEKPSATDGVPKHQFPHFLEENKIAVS
Technique: universal PBM
Molecule type: double-stranded DNA, one strand shown
Medium: in vitro
Concentration: 600 nM
Setting: 8-mer, flanks averaged, mean of replicates
Reading: higher = stronger binding
`CGAGTCGC` gave an E-score of -0.309.
`CTCCGCCC` has an E-score of -0.254.
`ACCTCCAC` has an E-score of -0.142.
The E-score of `CGGTTTTC` is reported as -0.0568.
The E-score of `CACGATAG` is reported as -0.018.
`AGTAGTTG` has an E-score of 0.009.

Block 2
Target: Prothrombin, mature alpha-thrombin (F2, Homo sapiens, UniProt P00734)
Technique: aptamer microarray, sandwich
Molecule type: DNA with 2'F-ANA
Medium: in vitro
Concentration: 200 nM
Setting: whole 15-mer aptamer, many near background
With: Cy3 exosite-II aptamer, 400 nM
Reading: higher = stronger binding
Sequence: GGTTGGTGTGGTTGG
Under “mean fluorescence intensity”, `2'F-ANA at 3 5 8 11 12` is recorded as 239 a.u.
`2'F-ANA at 2 8 10`: “mean fluorescence intensity” 155 a.u.
`2'F-ANA at 2 5 6 8 9 11 13 14 15` — result for “mean fluorescence intensity”: 46.9 a.u.
`2'F-ANA at 1 4 6 7 8 9 10 11 13 15` — result for “mean fluorescence intensity”: 50.3 a.u.
Under “mean fluorescence intensity”, `2'F-ANA at 1 2 3 4 5 6 7 9 11 14 15` is recorded as 48.4 a.u.

Block 3
Target: RING finger protein unkempt homolog, zinc fingers 1-6, GST-SBP tag (UNK, Homo sapiens, UniProt Q9C0B0, residues 30-357)
Chain of UniProt Q9C0B0 (30-357, looked up): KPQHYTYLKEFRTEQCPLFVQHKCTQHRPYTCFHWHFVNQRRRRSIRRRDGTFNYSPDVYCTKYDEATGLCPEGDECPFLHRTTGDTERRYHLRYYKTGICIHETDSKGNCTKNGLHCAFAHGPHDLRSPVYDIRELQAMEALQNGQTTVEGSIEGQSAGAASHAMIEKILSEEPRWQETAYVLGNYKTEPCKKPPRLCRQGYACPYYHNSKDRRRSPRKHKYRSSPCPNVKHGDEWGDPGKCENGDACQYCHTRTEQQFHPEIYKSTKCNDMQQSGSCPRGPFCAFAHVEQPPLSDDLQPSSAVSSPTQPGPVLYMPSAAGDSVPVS
Technique: RNA Bind-n-Seq
Molecule type: RNA
Medium: in vitro
Concentration: not given
Setting: RNA with constant flanks, ends assumed
Relative to: input RNA pool
Reading: higher = stronger binding
Shared flanks, not repeated: GGGAGUUCUACAGUCCGACGAUC … CAACAGAGGAUUGAGCAUCA
For `AACGGCAGGAAGACCCUUACUACUGUCCAAGGGAUCGCUGAUGAUUACGAUAAAAAGAAACCCGUGAAGGCGUUUAAGAAAAAGUUUGCCUGCAAUGGUACUGUAAUUGAGCAUCCGGAA`, the bound/input enrichment was 0.141 ratio.
For `GAGAUGCUAGCACACAGGGCAGUCCUGGCUUGCUGUAGCCCCUAUCUAUUUGAAAUCUUCAACCGUGACAGUGACCCUCAUGGAGUUUCUCAUGUGAAGUUGGAUGAUCUCAAUCCAGAA`, the bound/input enrichment was 0.481 ratio.
`CCCUGUUCCGUUUUGGUUGAUGGGUGUUUGGGAGGGGGCUGCGGGGGAUACUUUUUUUUUCCGUUCUUCUUUACCCUUAAGGUCAGCCCAUCACAAAAACAGAAACCGUUAAAUACCCCC` gave a bound/input enrichment of 0.288 ratio.
`AAGUCUUGCUAGAAUUUUUUCUAAUCUUUAGUAGAUUUGAUUAAAUAAUGAUUCACAGAAUUCCGUAACAGAAUCAAACUAAGCCAUGUAUGAGGGUAAUCGAGAUGAGGAUAUUAACUC` has a bound/input enrichment of 0.513 ratio.
For `AAUUAUGUACAUCAAAGAUAUCCUAGAUGUAGAGACGAUGGUGUCUGGGAUAAAAGGCAGAGUCCGUUUCUCUCAUAGCAUAUAUUGGCAGAAAUGGUUCUGCAAGAUGCUCAAAGGCAU`, the bound/input enrichment was 0.376 ratio.

Single results of other studies
`PhoQ, residues 284 288 289 292 302 303 SVTLVV` gave a fold induction of 13.6 (PhoP, residues 12 14 15 18 19 LHTVM (Escherichia coli, UniProt P23836); Sort-seq, refers to: YFP reporter; E. coli; PhoQ-PhoP variant library, with: 10 µM Mg2+; relative to: high Mg2+ state, higher = stronger signaling).

Excerpt of the above (block 2):
`2'F-ANA at 1 4 6 7 8 9 10 11 13 15` — result for “mean fluorescence intensity”: 50.3 a.u.
Under “mean fluorescence intensity”, `2'F-ANA at 1 2 3 4 5 6 7 9 11 14 15` is recorded as 48.4 a.u.
